Published values gathered from unrelated publications.
Every numbered part comes from another study and shows a few of its results, in no order. Changes are numbered by the printed parent chain.
Sequence of UniProt P31751 (whole entry, looked up): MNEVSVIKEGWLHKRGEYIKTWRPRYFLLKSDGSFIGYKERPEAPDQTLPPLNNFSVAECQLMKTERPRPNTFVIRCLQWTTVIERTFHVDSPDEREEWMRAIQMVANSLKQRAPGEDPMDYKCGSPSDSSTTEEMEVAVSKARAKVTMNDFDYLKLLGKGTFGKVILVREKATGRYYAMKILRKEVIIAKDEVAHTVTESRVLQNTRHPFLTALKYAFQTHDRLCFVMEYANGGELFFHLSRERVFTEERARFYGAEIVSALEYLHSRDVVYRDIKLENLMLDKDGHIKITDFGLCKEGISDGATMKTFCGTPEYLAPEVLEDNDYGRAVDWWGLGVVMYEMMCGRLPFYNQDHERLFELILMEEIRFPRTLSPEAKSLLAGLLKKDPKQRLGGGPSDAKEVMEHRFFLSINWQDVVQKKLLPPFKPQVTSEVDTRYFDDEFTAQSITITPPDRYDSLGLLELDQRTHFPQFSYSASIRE
Sequence of UniProt Q16566 (whole entry, looked up): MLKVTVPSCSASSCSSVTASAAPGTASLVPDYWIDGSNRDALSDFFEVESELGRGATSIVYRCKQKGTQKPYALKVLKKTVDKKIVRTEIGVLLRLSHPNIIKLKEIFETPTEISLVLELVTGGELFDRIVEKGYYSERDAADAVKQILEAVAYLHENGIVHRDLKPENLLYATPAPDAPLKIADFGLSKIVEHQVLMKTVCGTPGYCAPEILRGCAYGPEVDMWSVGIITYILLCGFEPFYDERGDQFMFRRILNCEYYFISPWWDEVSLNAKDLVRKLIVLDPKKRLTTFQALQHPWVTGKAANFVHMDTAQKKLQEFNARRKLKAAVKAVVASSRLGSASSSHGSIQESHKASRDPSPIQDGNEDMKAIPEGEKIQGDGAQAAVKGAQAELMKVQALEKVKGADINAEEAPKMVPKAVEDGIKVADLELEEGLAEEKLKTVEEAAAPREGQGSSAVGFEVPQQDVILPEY

Block 1 — target: vanadate, free oxyanion; method: microfluidic competitive inhibition; medium: in vitro, cell-free expressed; tested at: not given; reading: lower = stronger binding; endpoint: oxyanion analog dissociation constant
Notes: derived from inhibition constants, unchanged parent 676 nM
Starting sequence: PafA, mature enzyme, eGFP fusion (Elizabethkingia meningoseptica, UniProt Q9KJX5); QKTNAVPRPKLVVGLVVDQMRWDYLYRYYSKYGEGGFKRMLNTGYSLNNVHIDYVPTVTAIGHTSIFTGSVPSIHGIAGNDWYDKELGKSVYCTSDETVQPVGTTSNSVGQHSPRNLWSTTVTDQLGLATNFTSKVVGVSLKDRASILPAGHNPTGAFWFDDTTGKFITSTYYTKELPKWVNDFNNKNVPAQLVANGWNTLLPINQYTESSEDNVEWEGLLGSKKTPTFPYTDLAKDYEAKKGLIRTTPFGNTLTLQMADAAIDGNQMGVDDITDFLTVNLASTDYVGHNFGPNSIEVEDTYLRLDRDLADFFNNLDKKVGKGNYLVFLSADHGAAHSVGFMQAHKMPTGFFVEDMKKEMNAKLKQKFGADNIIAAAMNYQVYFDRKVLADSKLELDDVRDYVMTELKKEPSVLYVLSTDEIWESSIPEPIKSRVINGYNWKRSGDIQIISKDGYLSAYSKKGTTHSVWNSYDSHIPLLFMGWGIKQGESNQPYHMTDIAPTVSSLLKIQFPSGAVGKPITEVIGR
G222A: 524 nM
E410G: 811 nM
R307G: 695 nM
E216G: 772 nM
G197A: 1.66 µM
T105G: 1.03 µM
T301V: 614 nM
T465G: 535 nM
P501G: 693 nM
T130V: 910 nM
Q448V: 792 nM
L479V: 629 nM
W82V: 5.63 µM
G151A: 402 nM
N437G: 985 nM
P7V: 596 nM
G127A: 630 nM
E429V: 561 nM

Block 2 — method: RNA Bind-n-Seq; form: RNA; medium: in vitro; tested at: 200 nM; notes: whole 134-nt RNA, ends assumed; added: 150 mM KCl; relative to: input library; reading: higher = stronger binding; endpoint: log2 enrichment
Target: Fragile X messenger ribonucleoprotein 1, C-terminal low-complexity region (Fmr1, Mus musculus, UniProt P35922)
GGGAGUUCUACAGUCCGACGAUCUCCCCCCUAUUGGAAGUAAAGGGGAACAUAGAACUGAAGAGACCUCUGAUUAAGGCCCCUUCCCAGCUGCCUCUCUCAGGAAGCAGACUCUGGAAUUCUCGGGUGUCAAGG: -0.807
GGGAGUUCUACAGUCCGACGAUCUGGGAGGUGGAUUUUGUUUAUUUUUUUAGCUCAUUUCCAGGGGUGGGAAUUGUUUUUUAAUAUGUGUCAUGAAUAAAGUUGUUUUUGAAAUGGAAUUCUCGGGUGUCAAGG: 0.27
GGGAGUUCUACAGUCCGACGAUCCAAGUCCUGUGCUACACAUCGUAUGUACCGAAUCGGGGUUUGGGGUUUGGUUUGGAAAGUAUUAUGUUACGCCGUUCGGAUCUGCACUUCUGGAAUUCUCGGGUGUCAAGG: 0.142
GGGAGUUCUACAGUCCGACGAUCUUUUCUUCUGGGGCAUUUAUCCGUGCUGAUCUUGGUGAAUGGGGCAUGAGUCUAACGAUCAGAGCCCCUAGUGUAGAUUACAGAAACACUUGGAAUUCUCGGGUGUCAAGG: -0.0284
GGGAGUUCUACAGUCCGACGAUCCUGUGCUACACAUCGUAUGUACCGAAUCGGGGAAAAAAGGGGAAAAAAGGGAAAAAAGGGGAAAGUAUUAUGUUACGCCGUUCGGAUCUGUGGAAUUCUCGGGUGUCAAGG: -0.439
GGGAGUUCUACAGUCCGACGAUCCUCAAGUCCUGUGCUACACAUCGUAUGUACCGAAUCGGGGCGGGGCGGGGCGGAAAGUAUUAUGUUACGCCGUUCGGAUCUGCACUUCCAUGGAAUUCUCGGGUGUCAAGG: 0.901
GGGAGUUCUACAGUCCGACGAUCGUCCUGUGCUACACAUCGUAUGUACCGAAUCAAAUUUUUUUAAACCCCCAAAUUUAAAAAAGUAUUAUGUUACGCCGUUCGGAUCUGCACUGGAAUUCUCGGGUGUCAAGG: -0.0767
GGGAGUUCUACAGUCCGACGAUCUUAGAAGAAGUGGAAAGGAAAAAACGCCAAAGGGAGUUGGAAAUUGAAGAACGAGAACGGCGUAGAGAGGAAGAGAGAAGACUUGGCGAUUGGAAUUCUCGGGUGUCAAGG: 0.00479

Block 3 — effect on: enzyme activity; mode: inhibitor; tested at: 0.5 µM; relative to: control; endpoint: remaining activity
Structure (SMILES): COc1ccc2c(c[n+](C)c3c4cc5c(cc4ccc23)OCO5)c1OC
CAMK4 (Homo sapiens, UniProt Q16566): 99.9%
AKT2 (Homo sapiens, UniProt P31751): 93.6%
MET (Homo sapiens, UniProt P08581): 94.7%

Block 4 — target: CCNE2, cyclin fold, Cln2 fusion (human); method: yeast growth competition, sequencing; medium: yeast; notes: strong parent motif; relative to: not given; reading: higher = stronger binding; endpoint: normalised enrichment score
Starting sequence: viral docking peptide; TSVRRALFTGGSD; partner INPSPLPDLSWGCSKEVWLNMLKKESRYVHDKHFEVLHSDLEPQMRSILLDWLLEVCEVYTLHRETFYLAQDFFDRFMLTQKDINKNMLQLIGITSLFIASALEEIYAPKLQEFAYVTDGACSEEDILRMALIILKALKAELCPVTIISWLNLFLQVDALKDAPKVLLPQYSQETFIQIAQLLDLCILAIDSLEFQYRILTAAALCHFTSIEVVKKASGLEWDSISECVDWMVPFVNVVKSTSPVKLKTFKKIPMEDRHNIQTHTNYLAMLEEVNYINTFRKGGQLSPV
TSVRRALFTGTSD [G11T]: 4.34
TSVRRALFTGWSD [G11W]: 2.89
TSVRNALFTGGSD [R5N]: -0.103
TSVRRAKFTGGSD [L7K]: 0.318
TSVPRALFTGGSD [R4P]: 0.454
TSVRGALFTGGSD [R5G]: 0.0892
TSVRRAQFTGGSD [L7Q]: 0.0792
TSVRRSLFTGGSD [A6S]: 2.05
TSVRRALFTGGRD [S12R]: 3.34
TSVRRALFVGGSD [T9V]: 3.88
TSVRRALWTGGSD [F8W]: 1.37
TSVRRWLFTGGSD [A6W]: 0.875
TSVRRAGFTGGSD [L7G]: 0.13
TSVRRALFTGQSD [G11Q]: 4.05
TSVNRALFTGGSD [R4N]: 0.672
TSVRRALFTRGSD [G10R]: 2.58

Excerpt of the above (block 4):
TSVRRSLFTGGSD [A6S]: 2.05
TSVRRWLFTGGSD [A6W]: 0.875
TSVRRALFTGWSD [G11W]: 2.89
TSVRRALWTGGSD [F8W]: 1.37
